# Experimental data of several laboratories.
# Parts stem from different laboratories: compare values within a part only.

# Series 1
# Target: Interferon regulatory factor 5, full length, phosphomimetic (IRF5, Homo sapiens, UniProt Q13568-2, residues 1-514, S451D/S453D/S456D/S462D)
# Method: protein-binding microarray
# Form: double-stranded DNA, one strand shown
# Sample: in vitro
# Tested at: 940 nM top
# Notes: 60-bp whole probe
# Together with: salmon DNA 0.4 mg/ml
# Baseline: random background probes
# Direction: higher = stronger binding
# Constant ends, left off below: GCCTAGCAC … GTCTTGATTCGCTTGACGCTGCTG
Sequence,fitted relative affinity [z-score]
TACGATATCAGTTTCGAGACGTGCTAG,3.55
TTACATTTCAGACTGGATTAGTGCTAG,0.0245
GCCGAACTGGGGTATCGAGACGTGCTA,0.788
TTAGGTATCGGGGCTGGGTTAGTGCTA,4.12
GGCGGACTGCTTCTCCTGACGTGCTAG,-0.334
GACGATCTCAGTCACGAGACGTGCTAG,0.208
TTATAACTGAGTATCGATTAGTGCTAG,4.51
TTAGGTTTCGACGTTCGGTTAGTGCTA,8.54
TCAGGACTGACTCTTCAGACTGTGCTA,-0.401
TCATATATTTTAATCACACTGTGCTAG,0.648
CTGATTTCCACTTTCTTAATGTGCTAG,1.9
GACGGTCTCCTTCTCCTGTCGTGCTAG,1.7
TCACGTCTGAGCTCCGTACTGTGCTAG,-0.0569
GACGGACTGGGATATCGGGACGTGCTA,-0.285
GGACGGCAGTGCACACAGTGGTGCTAG,-0.532
GACGGTCTCCTTATCCTGTCGTGCTAG,1.36
CAGAAGTTCATGTTCAACCAGTGCTAG,-0.165
TGAGGTTTCCTTTCCCTTTAGTGCTAG,1.53
TCATCTGTCATTTTCTCACTGTGCTAG,1.71
TATTTTCTGAATGTCTTCCCGTGCTAG,1.07
TCACCTTTTGCTTTACTACTGTGCTAG,1.37
TTAGGTACCGGACTGGGTTAGTGCTAG,-0.134
GACGGACTGGGGTATCGGGAAGTGCTA,0.155
TAAGGTTTCGACACTGGGTTAGTGCTA,5.58
TTAGGTATCGGTCTCGTTTAGTGCTAG,9.78

# Series 2
# Target: RNA binding protein fox-1 homolog 2, RRM domain, GST-SBP tag (RBFOX2, Homo sapiens, UniProt O43251-10, residues 100-194)
# Method: RNA Bind-n-Seq
# Form: RNA
# Sample: in vitro
# Tested at: 365 nM
# Notes: natural RNA segment, single round, ends assumed
# Baseline: no-protein control
# Direction: higher = stronger binding
# Residues (chain): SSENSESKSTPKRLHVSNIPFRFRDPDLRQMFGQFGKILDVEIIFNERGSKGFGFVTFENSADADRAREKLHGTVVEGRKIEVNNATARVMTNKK
Sequence,RBNS enrichment (R)
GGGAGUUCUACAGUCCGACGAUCUUGCCUUCCAGGUGAAGGUGCAAAGUCAUACAUAUUAAUGACCUGACAGUUAACAUUCUGUUGUUUAUUAUUGCCUUUCUCCACCUUAGAGAGCCAUAAAUAACUCUCUGUGGAAUUCUCGGGUGCCAA,0.305
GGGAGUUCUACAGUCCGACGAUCAGAAGUUAAAUUUGAAAGUGAAUGUGUUCAAAUGAAAGGCUUGACAAUUGCAUCUGUUACUAGUUUUGUAGGCUUUAAUCCUAGUGUGCGUUAAAUAUUGGGCAAAUUGCUGGAAUUCUCGGGUGCCAA,9.99
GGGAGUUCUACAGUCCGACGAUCUAUUCAGAGUCUGGGGCUGUGUGUUGAGCAGCCUUAAGGAUGCUAGACACUCAUUUAGUGCCCAGGGAGUCCAGCGAAUGACGUCUGUGGCCAAGCGAGGUCUCAGGUGCUGGAAUUCUCGGGUGCCAA,0.413
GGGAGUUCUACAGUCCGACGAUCACGGUCCCCCCUCACUCCACACUGGCACGUUUGUGAGAAGAAAUGACAUUUUGCUAGGAAGUGACCGAGUCUAGGAAUGCUUUUAUUCAAGACACCAAAUUCCAAACUUCUGGAAUUCUCGGGUGCCAA,1.4
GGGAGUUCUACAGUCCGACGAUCGUAAUUCUGUCCUGCGGGGUUCAGCAUCAUGCACGUUCCCCCUGGGCCAUUCUCUGAUGCAGGGCACUUGCUCCACACUCUGGGAACCCAGAUUCACCAGUCUGCCCUGUUGGAAUUCUCGGGUGCCAA,0.209
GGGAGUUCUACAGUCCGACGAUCAGAAACACUGCCUUUUUAUUUAUAUGUAUUGUUUUCUAUGGCACUAGGGAAAAACAUAUCUGUUCCAAGAAAAUAAACUAGUUCUCAGAGCCUUGAUUUUCCUGGUCAGGUGGAAUUCUCGGGUGCCAA,0.931
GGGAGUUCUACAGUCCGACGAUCAGGGAGUGAAUAACAGUGAGAAGAGGAAUGGCAGGUGCCUGUUUCAUAGUCAGUGAGUGUGAAAGUUAGGCAUAAUAAUGGCAUCUCCCCACUUUAGGGUUCUCAAAUACUGGAAUUCUCGGGUGCCAA,0.267
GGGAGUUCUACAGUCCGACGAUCAAUUUAUUGAAUUUUAUUAUUGAAAGUUGAAACUUAACAUGUAUGAACAAAAACCAAUAAAAGAAUAUACUCUUUUCAUUGACUAUAGUAUUAUGUGAAUGCUACAUUUGUGGAAUUCUCGGGUGCCAA,0.435
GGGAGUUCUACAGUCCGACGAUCCCUACGUGAACCACCUGGGUCUCCCUUAGCAGGUACCCAGCCCUGAGGUGACUGACCACCUAGGGCCCCUGAGAGGCAAAGGGAACCUGCAAAGGGCCUGUCCCCGGGCAUGGAAUUCUCGGGUGCCAA,0.444

# Series 3
# Target: Ras GTPase-activating protein-binding protein 1, C-terminal RGG region (G3BP1, Homo sapiens, UniProt Q13283)
# Sequence of UniProt Q13283 (whole entry, looked up): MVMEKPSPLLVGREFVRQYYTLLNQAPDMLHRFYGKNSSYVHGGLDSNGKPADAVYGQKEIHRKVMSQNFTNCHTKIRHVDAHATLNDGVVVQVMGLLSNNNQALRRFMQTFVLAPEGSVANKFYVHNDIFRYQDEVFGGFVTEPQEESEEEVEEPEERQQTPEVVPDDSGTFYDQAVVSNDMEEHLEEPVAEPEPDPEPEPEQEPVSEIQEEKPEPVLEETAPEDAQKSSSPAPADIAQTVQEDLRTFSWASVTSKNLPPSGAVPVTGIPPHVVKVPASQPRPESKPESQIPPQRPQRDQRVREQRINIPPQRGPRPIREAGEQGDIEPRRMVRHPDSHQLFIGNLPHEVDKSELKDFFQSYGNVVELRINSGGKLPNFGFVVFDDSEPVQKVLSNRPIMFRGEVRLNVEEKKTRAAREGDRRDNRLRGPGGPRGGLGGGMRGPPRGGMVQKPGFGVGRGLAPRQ
# Method: RNA Bind-n-Seq
# Form: RNA
# Sample: in vitro
# Tested at: 1 µM
# Notes: whole 134-nt RNA, ends assumed
# Together with: 150 mM KCl
# Baseline: input library
# Direction: higher = stronger binding
Sequence,log2 enrichment
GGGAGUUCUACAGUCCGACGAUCAGUCCUGUGCUACACAUCGUAUGUACCGAAUCGGUUUUUGGGGUUUUUGGUUUUUGGAAAGUAUUAUGUUACGCCGUUCGGAUCUGCACUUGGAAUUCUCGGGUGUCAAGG,-1.2
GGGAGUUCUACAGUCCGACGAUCUGGCAUGGAUCCAGUGGGCUGAGACCACCCUCAUUCAGCGGGAUCAGGAGCCAAUCCCGCAGAACAUUGACCGAGUUAAAGCCCUUAUCGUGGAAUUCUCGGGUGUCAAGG,-1.37
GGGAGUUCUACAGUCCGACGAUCCCUGUGCUACACAUCGUAUGUACCGAAUCGGGGCCCCCCGGGGCCCCCCGGGCCCCCCGGGAAAGUAUUAUGUUACGCCGUUCGGAUCUGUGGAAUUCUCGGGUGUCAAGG,-1.71
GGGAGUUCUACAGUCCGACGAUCGUCCUGUGCUACACAUCGUAUGUACCGAAUCGGGGAAAGGGGUUUUUGGGGUUUGGGGAAAGUAUUAUGUUACGCCGUUCGGAUCUGCACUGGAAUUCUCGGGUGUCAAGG,1.62
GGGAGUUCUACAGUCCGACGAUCAAGUCCUGUGCUACACAUCGUAUGUACCGAAUCGGGGUUUGGGUUUGGGGUUUGGGGAAAGUAUUAUGUUACGCCGUUCGGAUCUGCACUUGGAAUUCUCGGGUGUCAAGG,1.4
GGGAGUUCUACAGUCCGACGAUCUAUUGAUGCAUUUGACCCUACACUGGCUCCAGCCACAGGAACUCCUGUUGUCGGGGGACUAACCUAUCGAGAAGGCAUGUAUAUUGCUGAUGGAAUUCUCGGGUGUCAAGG,-1.16
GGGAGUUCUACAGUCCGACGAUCUCAAGUCCUGUGCUACACAUCGUAUGUACCGAAUCGGGAAAAAGGGAGGGUGGGAAAGUAUUAUGUUACGCCGUUCGGAUCUGCACUUCCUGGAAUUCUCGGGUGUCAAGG,1.52
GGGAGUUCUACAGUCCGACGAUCGUCCUGUGCUACACAUCGUAUGUACCGAAUCAAACCCCCCCAAAUUUUUAAAUUUAAAAAAGUAUUAUGUUACGCCGUUCGGAUCUGCACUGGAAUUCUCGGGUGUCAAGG,-0.278
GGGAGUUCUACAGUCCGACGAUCUCAAGUCCUGUGCUACACAUCGUAUGUACCGAAUCGGUGGAAAAAAAGGUUUGGAAAGUAUUAUGUUACGCCGUUCGGAUCUGCACUUCCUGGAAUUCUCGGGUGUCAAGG,-1.43
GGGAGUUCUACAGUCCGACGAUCUGGGAGGUGGAUUUUGUUUAUAUUUUUAGCUCAUUUCCAGGGGUGGGAAUUUUUUUUUAAUAUGUGUCAUGAAUAAAGUUGUUUUUGAAAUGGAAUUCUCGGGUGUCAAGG,3.45

# Series 4
# Target: Phosphate system positive regulatory protein PHO4, full length, GST-tagged (PHO4, Saccharomyces cerevisiae, UniProt P07270, residues 1-312)
# Method: competition protein-binding microarray
# Form: double-stranded DNA, one strand shown
# Sample: in vitro
# Tested at: 2 µM
# Notes: whole 60-bp probe, lowest competitor level
# Together with: Cbf1 competitor, 0.05 µM
# Direction: higher = stronger binding
# Construct (chain): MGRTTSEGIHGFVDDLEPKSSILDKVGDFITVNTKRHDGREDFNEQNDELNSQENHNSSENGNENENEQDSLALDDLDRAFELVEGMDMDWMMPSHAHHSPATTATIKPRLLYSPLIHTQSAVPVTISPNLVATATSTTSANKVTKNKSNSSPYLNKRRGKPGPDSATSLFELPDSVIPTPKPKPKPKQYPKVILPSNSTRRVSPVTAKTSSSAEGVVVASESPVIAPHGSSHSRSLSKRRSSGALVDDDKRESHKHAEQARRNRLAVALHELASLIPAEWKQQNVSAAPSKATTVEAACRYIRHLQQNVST
Sequence,fluorescence intensity [a.u.]
TCTACAAGAGGTACCCACGTATTGCTCCATTGAGAGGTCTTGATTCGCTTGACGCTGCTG,7570
ACTAGAAGAAATCCGCACGTGTAACCAAAAATAGAGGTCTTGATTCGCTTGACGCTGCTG,18100
GTCTTGTCTCATTGGGGCGTGGGTGTCCCCACTTCAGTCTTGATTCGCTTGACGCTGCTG,8800
AAATTACTAAGTTGGTGGGTGGGTGACGCCGTATGAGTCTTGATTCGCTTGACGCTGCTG,4430
TCATATGTAGATAATAAACCTGCTATAAAACTGTCTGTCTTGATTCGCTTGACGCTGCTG,3940
TGATTGTGGAATTGGCAGGCGTGAAGTTCAAATCCGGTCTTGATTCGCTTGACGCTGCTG,4280
TATATGTAGTATCCACACGTGGACGACCATTAACGAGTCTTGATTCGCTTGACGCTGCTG,14800
CTTCCAACAAACCATCACGCTGTCGTATCTCAATTGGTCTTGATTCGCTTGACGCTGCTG,6630
CGTCCTAGTGATTGTGTCGTGGGTGCCATGAGGAAGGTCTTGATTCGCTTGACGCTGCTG,8750
TAGTGGATTCTCGGAGGCGTGACTCGAGCCAGCCCAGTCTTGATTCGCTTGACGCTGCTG,4650
CTTCTGTAAATTTTTCACGTGTCGTGAAGCGCCCCGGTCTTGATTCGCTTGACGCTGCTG,11100
GATTTGAATACAACCGTCGTGCCGAACATCGCGGTTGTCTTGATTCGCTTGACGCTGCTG,6900
CTAACGAAGGTTTGTCACGTCACTTACAAGCCAAGTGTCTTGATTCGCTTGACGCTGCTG,4300
CGTCCTAGTGATTGTCACGGCACTTCCATGAGGAAGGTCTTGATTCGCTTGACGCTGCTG,4760
AAATTACTAAGTTGAGTAGTGGGTGACGCCGTATGAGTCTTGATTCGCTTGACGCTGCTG,4080
CTTTCCCGATCTTTTCACGTGGACTTAGCACATTTGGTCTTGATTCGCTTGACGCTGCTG,13100
CGGGGTTAAGTTTGGGTTGTGGGTGGCTTGCAGCAGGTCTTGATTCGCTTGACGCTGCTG,5460
GATGAACTGAAAAGGCACATGAGAACGCATACAGGGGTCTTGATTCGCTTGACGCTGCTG,7210

# For quick reference, copied from above (series 1):
Sequence,fitted relative affinity [z-score]
TTATAACTGAGTATCGATTAGTGCTAG,4.51
GCCGAACTGGGGTATCGAGACGTGCTA,0.788
TTACATTTCAGACTGGATTAGTGCTAG,0.0245
TATTTTCTGAATGTCTTCCCGTGCTAG,1.07
GACGATCTCAGTCACGAGACGTGCTAG,0.208
GACGGTCTCCTTCTCCTGTCGTGCTAG,1.7
GGCGGACTGCTTCTCCTGACGTGCTAG,-0.334
